Measurements pooled from the literature.
Compare with care: the assays were run in different laboratories.
CDK16: Cyclin-dependent kinase 16 (CDK16, Homo sapiens, UniProt Q00536)
Sequence of UniProt Q00536 (whole entry, looked up): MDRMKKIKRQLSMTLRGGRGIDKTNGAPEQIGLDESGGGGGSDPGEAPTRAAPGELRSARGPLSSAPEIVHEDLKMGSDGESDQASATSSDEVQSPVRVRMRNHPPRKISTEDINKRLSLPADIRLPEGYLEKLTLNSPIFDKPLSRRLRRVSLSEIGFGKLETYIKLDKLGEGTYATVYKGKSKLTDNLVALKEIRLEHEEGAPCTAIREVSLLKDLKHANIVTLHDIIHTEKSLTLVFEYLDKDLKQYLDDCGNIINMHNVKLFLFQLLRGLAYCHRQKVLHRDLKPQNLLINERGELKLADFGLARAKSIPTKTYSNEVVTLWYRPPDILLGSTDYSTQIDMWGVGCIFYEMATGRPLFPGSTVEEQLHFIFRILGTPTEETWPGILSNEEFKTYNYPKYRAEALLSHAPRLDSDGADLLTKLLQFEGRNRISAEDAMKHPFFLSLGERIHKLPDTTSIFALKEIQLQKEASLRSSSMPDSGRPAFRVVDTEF
4'-phosphopantetheinyl transferase PptT: 4'-phosphopantetheinyl transferase PptT (Mycobacterium tuberculosis, UniProt O33336)
Sequence of UniProt O33336 (whole entry, looked up): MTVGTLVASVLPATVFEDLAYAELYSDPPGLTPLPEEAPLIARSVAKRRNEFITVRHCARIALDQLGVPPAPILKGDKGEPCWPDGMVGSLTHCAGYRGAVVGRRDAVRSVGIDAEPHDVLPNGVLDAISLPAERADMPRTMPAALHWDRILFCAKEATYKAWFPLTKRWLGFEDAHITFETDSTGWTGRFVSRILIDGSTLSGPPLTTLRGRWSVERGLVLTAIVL
HTR3A: 5-hydroxytryptamine receptor 3A (HTR3A, Homo sapiens, UniProt P46098)
Sequence of UniProt P46098 (whole entry, looked up): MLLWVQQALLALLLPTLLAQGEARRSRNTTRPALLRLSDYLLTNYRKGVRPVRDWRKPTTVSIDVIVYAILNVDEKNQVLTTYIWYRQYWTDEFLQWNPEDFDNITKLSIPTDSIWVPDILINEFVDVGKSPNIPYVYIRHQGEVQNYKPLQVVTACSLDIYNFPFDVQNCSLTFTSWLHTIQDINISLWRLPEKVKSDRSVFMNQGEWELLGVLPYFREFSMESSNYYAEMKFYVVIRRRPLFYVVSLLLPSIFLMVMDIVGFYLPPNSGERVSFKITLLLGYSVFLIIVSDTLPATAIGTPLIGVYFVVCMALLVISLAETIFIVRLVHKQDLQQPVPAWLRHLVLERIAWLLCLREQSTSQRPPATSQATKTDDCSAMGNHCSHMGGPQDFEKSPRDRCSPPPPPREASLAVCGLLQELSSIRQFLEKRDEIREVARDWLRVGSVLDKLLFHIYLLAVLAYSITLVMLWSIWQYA
Sequence of UniProt P35372 (whole entry, looked up): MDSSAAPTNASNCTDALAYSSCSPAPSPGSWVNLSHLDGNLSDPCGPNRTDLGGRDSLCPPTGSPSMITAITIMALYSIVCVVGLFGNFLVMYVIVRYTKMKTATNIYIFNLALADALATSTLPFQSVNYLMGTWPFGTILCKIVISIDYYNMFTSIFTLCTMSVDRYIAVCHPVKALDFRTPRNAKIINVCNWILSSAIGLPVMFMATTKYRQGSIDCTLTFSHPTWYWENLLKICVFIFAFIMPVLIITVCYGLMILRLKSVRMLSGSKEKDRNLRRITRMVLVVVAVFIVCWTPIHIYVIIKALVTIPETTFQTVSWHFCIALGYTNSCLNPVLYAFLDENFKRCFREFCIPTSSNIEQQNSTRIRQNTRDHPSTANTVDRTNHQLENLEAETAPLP
Sequence of UniProt P40763 (whole entry, looked up): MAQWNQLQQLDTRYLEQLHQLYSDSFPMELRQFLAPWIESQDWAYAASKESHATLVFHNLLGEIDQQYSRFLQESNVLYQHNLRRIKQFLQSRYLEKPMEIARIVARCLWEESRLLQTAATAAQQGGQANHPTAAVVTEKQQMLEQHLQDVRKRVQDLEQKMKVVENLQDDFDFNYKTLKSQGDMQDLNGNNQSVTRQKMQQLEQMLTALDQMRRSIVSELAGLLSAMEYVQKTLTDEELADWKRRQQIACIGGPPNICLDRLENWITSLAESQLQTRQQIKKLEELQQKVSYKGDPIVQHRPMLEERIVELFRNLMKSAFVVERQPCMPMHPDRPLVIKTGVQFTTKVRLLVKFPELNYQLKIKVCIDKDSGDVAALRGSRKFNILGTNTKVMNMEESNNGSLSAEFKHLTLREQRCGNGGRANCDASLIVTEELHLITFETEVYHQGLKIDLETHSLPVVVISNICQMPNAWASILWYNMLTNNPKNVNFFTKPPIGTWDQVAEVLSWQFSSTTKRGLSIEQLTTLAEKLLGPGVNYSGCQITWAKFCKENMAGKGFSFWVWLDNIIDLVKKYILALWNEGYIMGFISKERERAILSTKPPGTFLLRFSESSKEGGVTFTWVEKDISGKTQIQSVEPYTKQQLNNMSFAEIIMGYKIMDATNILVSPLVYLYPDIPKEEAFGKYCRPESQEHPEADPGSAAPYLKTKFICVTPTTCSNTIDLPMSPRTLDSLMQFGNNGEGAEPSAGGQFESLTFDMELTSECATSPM
Sequence of UniProt P34972 (whole entry, looked up): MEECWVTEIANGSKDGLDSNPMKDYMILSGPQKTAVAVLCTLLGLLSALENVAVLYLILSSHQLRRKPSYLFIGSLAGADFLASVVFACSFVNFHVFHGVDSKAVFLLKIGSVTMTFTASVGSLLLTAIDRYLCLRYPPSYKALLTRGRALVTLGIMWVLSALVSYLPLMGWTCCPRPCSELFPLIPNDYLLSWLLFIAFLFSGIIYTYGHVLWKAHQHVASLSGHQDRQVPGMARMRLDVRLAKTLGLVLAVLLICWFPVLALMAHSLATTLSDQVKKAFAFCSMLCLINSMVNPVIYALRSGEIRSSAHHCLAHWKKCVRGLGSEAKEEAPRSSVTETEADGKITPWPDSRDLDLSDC
Sequence of UniProt O60741 (whole entry, looked up): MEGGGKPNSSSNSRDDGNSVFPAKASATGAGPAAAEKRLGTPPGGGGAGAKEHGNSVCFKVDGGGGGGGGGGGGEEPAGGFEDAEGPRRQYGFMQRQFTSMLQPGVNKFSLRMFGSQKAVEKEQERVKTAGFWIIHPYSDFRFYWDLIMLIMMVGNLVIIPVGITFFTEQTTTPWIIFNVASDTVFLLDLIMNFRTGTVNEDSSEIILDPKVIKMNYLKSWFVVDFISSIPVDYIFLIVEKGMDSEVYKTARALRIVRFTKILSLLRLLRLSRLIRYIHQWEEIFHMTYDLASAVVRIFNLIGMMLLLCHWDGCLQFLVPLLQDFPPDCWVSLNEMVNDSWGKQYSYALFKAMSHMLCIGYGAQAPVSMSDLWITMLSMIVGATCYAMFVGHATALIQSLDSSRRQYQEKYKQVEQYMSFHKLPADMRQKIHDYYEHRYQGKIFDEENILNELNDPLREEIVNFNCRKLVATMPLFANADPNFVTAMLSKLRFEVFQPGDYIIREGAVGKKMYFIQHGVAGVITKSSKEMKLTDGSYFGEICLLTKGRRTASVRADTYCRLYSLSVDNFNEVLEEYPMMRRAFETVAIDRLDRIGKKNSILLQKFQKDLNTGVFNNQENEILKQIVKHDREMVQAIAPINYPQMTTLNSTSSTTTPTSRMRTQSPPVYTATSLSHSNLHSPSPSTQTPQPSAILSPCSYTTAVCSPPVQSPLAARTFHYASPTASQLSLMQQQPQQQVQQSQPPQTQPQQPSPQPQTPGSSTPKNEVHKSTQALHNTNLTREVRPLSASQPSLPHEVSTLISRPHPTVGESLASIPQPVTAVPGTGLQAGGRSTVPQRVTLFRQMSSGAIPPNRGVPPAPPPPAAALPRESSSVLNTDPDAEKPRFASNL
Sequence of UniProt P41146 (whole entry, looked up): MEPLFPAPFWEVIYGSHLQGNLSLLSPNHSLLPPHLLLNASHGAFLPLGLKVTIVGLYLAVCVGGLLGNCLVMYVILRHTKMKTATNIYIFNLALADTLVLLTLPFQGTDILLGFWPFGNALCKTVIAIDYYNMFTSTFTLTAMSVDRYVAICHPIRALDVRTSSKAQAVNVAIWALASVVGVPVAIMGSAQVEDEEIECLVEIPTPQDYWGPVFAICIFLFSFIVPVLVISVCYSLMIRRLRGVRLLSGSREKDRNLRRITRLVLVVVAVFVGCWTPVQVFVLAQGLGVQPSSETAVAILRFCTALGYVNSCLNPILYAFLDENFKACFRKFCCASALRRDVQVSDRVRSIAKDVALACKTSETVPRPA
Sequence of UniProt P07333 (whole entry, looked up): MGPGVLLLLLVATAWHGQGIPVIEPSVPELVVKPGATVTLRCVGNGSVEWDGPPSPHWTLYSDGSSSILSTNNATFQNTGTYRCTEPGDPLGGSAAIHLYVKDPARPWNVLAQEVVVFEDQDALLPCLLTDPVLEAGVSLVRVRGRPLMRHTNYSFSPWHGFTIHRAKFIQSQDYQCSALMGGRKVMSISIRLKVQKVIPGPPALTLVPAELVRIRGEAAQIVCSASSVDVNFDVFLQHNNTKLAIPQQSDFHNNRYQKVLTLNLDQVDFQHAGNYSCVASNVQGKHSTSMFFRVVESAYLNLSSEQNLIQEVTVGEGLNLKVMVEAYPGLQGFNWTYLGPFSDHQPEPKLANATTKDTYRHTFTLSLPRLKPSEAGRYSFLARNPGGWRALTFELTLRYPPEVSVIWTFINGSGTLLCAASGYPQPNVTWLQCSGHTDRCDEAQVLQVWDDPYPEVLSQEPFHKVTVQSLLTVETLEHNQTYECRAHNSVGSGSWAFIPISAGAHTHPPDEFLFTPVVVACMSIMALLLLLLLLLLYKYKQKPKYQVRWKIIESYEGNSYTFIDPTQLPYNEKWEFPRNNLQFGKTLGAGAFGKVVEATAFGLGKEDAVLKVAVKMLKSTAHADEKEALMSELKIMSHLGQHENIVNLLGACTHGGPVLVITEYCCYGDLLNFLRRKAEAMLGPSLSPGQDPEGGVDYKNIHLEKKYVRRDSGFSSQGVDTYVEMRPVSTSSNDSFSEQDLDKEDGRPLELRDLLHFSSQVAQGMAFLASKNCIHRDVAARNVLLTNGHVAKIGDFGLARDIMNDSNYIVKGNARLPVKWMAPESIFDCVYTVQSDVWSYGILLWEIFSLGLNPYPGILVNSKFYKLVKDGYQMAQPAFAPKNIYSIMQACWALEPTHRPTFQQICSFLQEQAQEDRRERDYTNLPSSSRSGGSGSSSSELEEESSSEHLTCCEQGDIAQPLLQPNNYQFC

Structure (SMILES) | tested on | test | system | conditions | quantity | result
COc1ncccc1-c1cnn2ccc(N3CCN(C(=O)OC(C)C)CC3)nc12 | CDK16 | binding, competition with immobilised ligand | – | 1 µM | remaining binding | 100%
CCN(CC)CCCC[C@H](NC(=O)[C@H](CC(C)C)NC(=O)[C@H](C)NC(=O)[C@H](Cc1ccccc1)NC(=O)c1ccc(C(C)(C)C)cc1)C(=O)N[C@@H](CO)C(=O)OC | Bromodomain adjacent to zinc finger domain protein 2B, bromodomain (BAZ2B, Homo sapiens, UniProt Q9UIF8) | thermal stability, DSF | – | 25 µM | ΔTm | 0.17 °C
O=c1c2ccc(Cl)cc2[nH]c(=S)n1Cc1cccnc1 | 4'-phosphopantetheinyl transferase PptT | enzyme activity, inhibitor, FP | – | – | IC50 | 15.5 µM
Cc1nn(C)cc1-c1nc2c(N3CCN(Cc4ccc(Cl)cc4)CC3)c(Cl)cnc2[nH]1 | SIK3 (Homo sapiens, UniProt Q9Y2K2) | binding, competition with immobilised ligand | – | 1 µM | remaining binding | 100%
CC(C)CC(=O)OC[C@H]1O[C@@](C#N)(c2ccc3c(N)ncnn23)[C@H](O)[C@@H]1O | HTR3A | enzyme activity, inhibitor | – | 20 µM | inhibition | 6%
Oc1cccc(N2C[C@H]3CC[C@@H](C2)N3CCCc2ccccc2)c1 | Nociceptin receptor (OPRL1, Homo sapiens, UniProt P41146) | cAMP, agonist | – | – | Emax | 0%
NC(=O)CC[C@H](NC(=O)[C@@H]1CC[C@@H]2CCN(C(=O)CCCCCC#Cc3cccc4c3CN(C3CCC(=O)NC3=O)C4=O)C[C@H](NC(=O)c3cc4cc(C(F)(F)P(=O)(O)O)ccc4[nH]3)C(=O)N21)C(=O)NC(c1ccccc1)c1ccccc1 (stereo partly shown) | STAT3 (Homo sapiens, UniProt P40763) | protein level, degrader, luciferase | HeLa | – | Dmax | 86 to 88%
CN1CCC[C@H]1c1cccnc1 | HTR3A | ligand displacement, radioligand | – | 50 µM | inhibition | 5.48%
[2H]c1c([2H])c([C@]2([2H])CCCN2C(=O)C(C)(C)Oc2ccc3cn[nH]c3c2)c([2H])c([2H])c1C([2H])([2H])[2H] | BRSK1 (Homo sapiens, UniProt Q8TDC3) | binding, competition with immobilised ligand | – | 1 µM | remaining binding | 80%
Nc1ncc(-c2nc(N3CCOCC3)nc(N3CCOCC3)n2)c(C(F)F)n1 | CDK16 | binding, competition with immobilised ligand | – | 10 µM | remaining binding | 90%
c1cncc([C@@H]2CCCN2)c1 | OPRM1 (Homo sapiens, UniProt P35372) | ligand displacement | – | 50 µM | inhibition | 11.1%
NC(=S)c1ccc(Cn2c(=S)[nH]c3ccc(Cl)cc3c2=O)cn1 | 4'-phosphopantetheinyl transferase PptT | enzyme activity, inhibitor, FP | – | – | IC50 | 0.09 µM
C#Cc1n[nH]c2c(-c3cn([C@@H](C)c4ccccn4)c(=O)[nH]c3=O)cc(F)cc12 | CSF1R (Homo sapiens, UniProt P07333) | enzyme activity, inhibitor | – | 0.1 µM | inhibition | 1.1%
CCCCC/C=C\C/C=C\C/C=C\C/C=C\CCCC(=O)NCCO | CNR2 (Homo sapiens, UniProt P34972) | β-arrestin recruitment, agonist | – | – | Emax | 40%
C[C@@H](O)[C@@H]1NC(=O)[C@H](Cc2ccccc2)NC(=O)[C@@H](Cc2ccccc2)NC(=O)[C@H]([C@@H](C)O)NC(=O)[C@@H](CCCN)NC(=O)[C@H](CCCNC(=N)N)NC(=O)[C@@H](CCCN)NC1=O | Balamuthia mandrillaris | parasite growth, ATP luminescence | – | – | IC90 | > 16 µg/mL
CC12CC3CC(C)(C1)CC(N)(C3)C2 | Potassium/sodium hyperpolarization-activated cyclic nucleotide-gated channel 1 (Homo sapiens, UniProt O60741) | ion current, inhibitor | – | 10 µM | inhibition | 5.57%

Repeated from above:
Structure (SMILES) | tested on | test | system | conditions | quantity | result
O=c1c2ccc(Cl)cc2[nH]c(=S)n1Cc1cccnc1 | 4'-phosphopantetheinyl transferase PptT | enzyme activity, inhibitor, FP | – | – | IC50 | 15.5 µM
Cc1nn(C)cc1-c1nc2c(N3CCN(Cc4ccc(Cl)cc4)CC3)c(Cl)cnc2[nH]1 | SIK3 (Homo sapiens, UniProt Q9Y2K2) | binding, competition with immobilised ligand | – | 1 µM | remaining binding | 100%
